# Results gathered from unrelated publications.
# Protocols differ between the studies behind these lines. Several values in a cell are separate wells, animals, samples, runs or records. ± marks the error that the study gave.
# ORF1 3C-like protease: Genome polyprotein, 3C-like protease (ORF1, Hu/NV/NV/1968/US, UniProt Q83883)
# LCK: Tyrosine-protein kinase Lck (LCK, Homo sapiens, UniProt P06239)
# MAOA: Amine oxidase [flavin-containing] A (MAOA, Homo sapiens, UniProt P21397)
# MLLT1 with AF4: Protein ENL, with AF4 (MLLT1, Homo sapiens, UniProt Q03111)
# fabG: 3-oxoacyl-[acyl-carrier-protein] reductase FabG (fabG, Pseudomonas aeruginosa, UniProt O54438)
# TST: Thiosulfate sulfurtransferase (TST, Bos taurus, UniProt P00586)
Compound,target,assay,system,setting,IC50
CC(C)C[C@H](NC(=O)[C@H](Cc1cccc2ccccc12)NC(=O)OCc1ccccc1)C(=O)N[C@H](CO)Cn1ccnn1,ORF1 3C-like protease,"protease activity, inhibitor, FRET",GI.1,37 °C,> 1 µM
CC[N+](CC)(CC(=O)Nc1c(C)cccc1C)Cc1ccccc1,"uncharacterized protein (Drosophila suzukii, UniProt A0AB39ZCT4)","binding, bis-ANS competition fluorescence",,"pH 7.4, added: bis-ANS",> 50 µM
[Cl-].[Cl-].[Zn+2],"Voltage-gated hydrogen channel 1 (HVCN1, Homo sapiens, UniProt Q96D96, E119H)","proton current, inhibitor, whole-cell voltage clamp",,,0.57 µM
CN1CCC(CNc2ccc3ncc(-c4cccc(OC(F)(F)F)c4)n3n2)CC1,LCK,"binding, KINOMEscan binding",,top concentration 10 µM,0.215 µM
OC[C@H]1O[C@@](CO)(O[C@H]2O[C@H](CO)[C@@H](O)[C@H](O)[C@H]2O)[C@@H](O)[C@@H]1O,"uncharacterized protein (Drosophila suzukii, UniProt A0AB39ZCT4)","binding, bis-ANS competition fluorescence",,"pH 7.4, added: bis-ANS",> 50 µM
CN1CCN(c2ccc(Nc3ncc4cc(C#N)c(=O)n(C5CCCC5)c4n3)cc2)CC1,"Myosin light chain kinase 2, skeletal/cardiac muscle (MYLK2, Homo sapiens, UniProt Q9H1R3)",,,,0.524 µM
O=C(Nc1ccccc1)c1ccc2c(c1)C(=O)NC2=O,MAOA,,,,> 40 µM
Cc1ccc(NC(=O)c2ccc(C)c(C(F)(F)F)c2)cc1C#Cc1nn(C2CCC(O)CC2)c2ncnc(N)c12 (centres unmarked),"Ribosomal protein S6 kinase alpha-1 (RPS6KA1, Homo sapiens, UniProt Q15418)","inhibitor, radiometric kinase",,added: ATP 10 µM,0.559 µM
C=C(C)[C@@H]1CC[C@]2(C)CC[C@]3(C)[C@H](CC[C@@H]4[C@@]5(C)CCCC(C)(C)[C@@H]5CC[C@]43C)[C@@H]12,MAOA,"enzyme activity, inhibitor",,added: kynuramine 80 µM,> 100 µM
c1ccc(Oc2ccc(Nc3ccc4ncc(OCC5CCNCC5)nc4c3)cc2)cc1,MLLT1 with AF4,AlphaScreen,,,1.5 ± 0.39 µM
CCCCCCCCCCCC,"uncharacterized protein (Bradysia odoriphaga, UniProt A0A2S0X9G4)","binding, competitive fluorescence displacement",,pH 7.4,> 50 µM
CCOc1ccccc1C(=O)Nc1noc2ccccc12,fabG,"enzyme activity, inhibitor, NADPH fluorescence",,"reverse reaction, geometric mean, added: 3-OH-decanoyl-NAC, NADP",3.6 µM
Cc1cnc(-c2ccc(-c3ccc(NC(=O)Nc4c(F)cc(F)cc4F)cc3F)c3c2C(=O)NC3)[nH]1,LCK,"enzyme activity, inhibitor, mobility shift",,added: ATP 1 mM,0.0117 µM
Cn1ncc2c(N3CCCCC3)nc(Nc3ccccc3)nc21,fabG,"enzyme activity, inhibitor, NADPH fluorescence",,"reverse reaction, geometric mean, added: 3-OH-decanoyl-NAC, NADP",2.9 µM
Cc1nc(Nc2ncc(C(=O)Nc3c(C)cccc3Cl)s2)cc(N2CC[C@H](O)C2)n1,LCK,"enzyme activity, inhibitor",,,0.00012 µM
COc1cc(NC(=O)c2cccs2)c2ncccc2c1,fabG,,,,0.11 µM
CCCCCCC=O,"uncharacterized protein (Bradysia odoriphaga, UniProt A0A2S0X9G4)","binding, competitive fluorescence displacement",,pH 7.4,> 50 µM
O=C(NO)c1ccc(Cn2cnc3c(Nc4cccc([N+](=O)[O-])c4)ncnc32)cc1,"RAC-beta serine/threonine-protein kinase (AKT2, Homo sapiens, UniProt P31751)","kinase activity, inhibitor",,added: ATP 10 µM,17.8 µM
Cc1cc(C#N)cc(C)c1Oc1nc(Nc2ccc(C#N)cc2)nc(N)c1Br,"Gag-Pol polyprotein, reverse transcriptase (gag-pol, Xenotropic MuLV-related virus, UniProt A1Z651)","inhibitor, primer extension",,added: 1 µM dNTPs,> 10 µM
CCNc1nc(C#N)nc(Nc2ccccc2)n1,fabG,"enzyme activity, inhibitor, NADPH fluorescence",,"reverse reaction, geometric mean, added: 3-OH-decanoyl-NAC, NADP",3.8 µM
O=c1ccc2ccccc2o1,"uncharacterized protein (Drosophila suzukii, UniProt A0AB39ZGK5)","binding, bis-ANS competition fluorescence",,"pH 7.4, added: bis-ANS",35.6 µM
CCn1c(NC(=O)Nc2ccccc2C)nc2ccccc21,fabG,,,,0.09 µM
C=CC(C)=CCC=C(C)C,"uncharacterized protein (Bradysia odoriphaga, UniProt A0A2S0X9G4)","binding, competitive fluorescence displacement",,pH 7.4,> 50 µM
COc1ccc(S(=O)(=O)Nc2ccc3oc(-c4ccc(NS(=O)(=O)c5cc(F)ccc5OC)cc4)nc3c2)cc1,TST,"enzyme activity, inhibitor",,native rhodanese counter-screen,> 100 µM
CCCCOC(=O)CCC(C)=O,"uncharacterized protein (Bradysia odoriphaga, UniProt A0A2S0X9G4)","binding, competitive fluorescence displacement",,pH 7.4,> 50 µM
O=C(Nc1ccc(Cl)cc1)c1ccc2c(c1)C(=O)NC2=O,MAOA,,,,> 40 µM
CCCCCCCCCCCCCCCCC,"uncharacterized protein (Bradysia odoriphaga, UniProt A0A2S0X9G4)","binding, competitive fluorescence displacement",,pH 7.4,> 50 µM
Cc1[nH]c(N)nc1CCC(=O)c1cc(F)cc(F)c1,"Voltage-gated hydrogen channel 1 (HVCN1, Homo sapiens, UniProt Q96D96)","proton current, inhibitor, inside-out patch clamp",Xenopus laevis oocytes,pH 6.0,13.3 ± 1 µM
O=C(Nc1ccccc1Br)c1ccc2c(c1)C(=O)NC2=O,MAOA,,,,> 40 µM
O=C(Nc1ccc(Sc2nc3ccccc3s2)cc1)c1cc(Br)cc(Br)c1O,TST,"enzyme activity, inhibitor",,native rhodanese counter-screen,> 100 µM
CC12CCC(CC1)C(C)(C)O2,"uncharacterized protein (Bradysia odoriphaga, UniProt A0A2S0X9G4)","binding, competitive fluorescence displacement",,pH 7.4,> 50 µM
CC[C@@H]1[C@H](F)C(=O)N[C@@H]1COc1nccc2cc(C(N)=O)c(OC)cc12,"TRAF2 and NCK-interacting protein kinase (TNIK, Homo sapiens, UniProt Q9UKE5)","ATP-site binding, ActivX kinase profiling",THP-1 cell lysate,ZC2/TNIK Lys1 probe peptide,> 5 µM
CCCCCCCCCCCC(=O)OC,"uncharacterized protein (Drosophila suzukii, UniProt A0AB39ZCT4)","binding, bis-ANS competition fluorescence",,"pH 7.4, added: bis-ANS",> 50 µM
Cc1ccc(S(=O)(=O)Nc2ccc(-c3nc4cc(NS(=O)(=O)c5ccc(C)cc5)ccc4o3)cc2)cc1,TST,"enzyme activity, inhibitor",,native rhodanese counter-screen,> 100 µM
Cc1ccc(C(C)C)cc1O,"uncharacterized protein (Bradysia odoriphaga, UniProt A0A2S0X9G4)","binding, competitive fluorescence displacement",,pH 7.4,> 50 µM
CC(=O)/C=C/C1=C(C)CCCC1(C)C,"uncharacterized protein (Drosophila suzukii, UniProt A0AB39ZCT4)","binding, bis-ANS competition fluorescence",,"pH 7.4, added: bis-ANS",5.89 µM
O=C(Nc1cccc(Cl)c1)c1ccc2c(c1)C(=O)NC2=O,MAOA,,,,> 40 µM
Cn1cc2c(C(=O)O)ccc(NS(=O)(=O)c3ccc(OCC4CCC4)c(Cl)c3)c2n1,"High affinity cGMP-specific 3',5'-cyclic phosphodiesterase 9A (PDE9A, Homo sapiens, UniProt O76083)",antagonist,,off-target panel,> 200 µM
O=S(=O)(Nc1ccc(-c2nc3cc(NS(=O)(=O)c4ccc(Cl)s4)ccc3o2)cc1)c1ccc(Cl)c(C(F)(F)F)c1,TST,"enzyme activity, inhibitor",,native rhodanese counter-screen,> 100 µM
O=c1nc(SCc2cc(F)cc(C(F)(F)F)c2)nc(SCc2ccc3sccc3c2)[nH]1,"DNA topoisomerase 2-alpha (TOP2A, Homo sapiens, UniProt P11388)","ATPase activity, ATP-competitive inhibitor",,added: ATP 0.5 mM,13.3 µM
Fc1ccc(Oc2ccc(Nc3ccc4ncc(OCC5CCNCC5)nc4c3)cc2)cc1,MLLT1 with AF4,AlphaScreen,,,1.2 ± 0.12 µM
CC(C)C[C@H](NC(=O)[C@H](Cc1cccc2ccccc12)NC(=O)OCc1ccccc1)C(=O)N[C@H](CO)CNC(=O)N1CCC1,ORF1 3C-like protease,"protease activity, inhibitor, FRET",GI.1,37 °C,> 100 µM
O=C(Nc1ccc(F)c(F)c1)c1ccc2c(c1)C(=O)NC2=O,MAOA,,,,> 40 µM
C[C@]12CC[C@@H]3c4ccc(O)cc4C[C@@H](CCCCCCCCC[S+]([O-])CCCC(F)(F)C(F)(F)F)[C@H]3[C@@H]1CC[C@@H]2O (some centres unmarked),"Mineralocorticoid receptor (NR3C2, Homo sapiens, UniProt P08235)","MR receptor activity, agonist, cell-based",,,> 10 µM
O=C(Nc1ccccc1)c1ccccc1,MAOA,,,,> 40 µM
COc1ccc(S(=O)(=O)Nc2ccc3oc(-c4ccc(NS(=O)(=O)c5cc(Br)ccc5OC)cc4)nc3c2)cc1,TST,"enzyme activity, inhibitor",,native rhodanese counter-screen,> 100 µM
OCCc1ccccc1,"uncharacterized protein (Drosophila suzukii, UniProt A0AB39ZGK5)","binding, bis-ANS competition fluorescence",,"pH 7.4, added: bis-ANS",> 50 µM
O=C(Nc1ccc(Sc2nc3ccccc3s2)c(Cl)c1)c1cccc(Br)c1O,TST,"enzyme activity, inhibitor",,native rhodanese counter-screen,> 100 µM
CCCCCC/C=C\CC/C=C\CCCCCCCCCCCCCCC,"uncharacterized protein (Drosophila suzukii, UniProt A0AB39ZGK5)","binding, bis-ANS competition fluorescence",,"pH 7.4, added: bis-ANS",> 50 µM
CC(C)C[C@H](NC(=O)[C@H](Cc1ccccc1)NC(=O)OCc1ccccc1)C(=O)C=O,"Calpain-2 catalytic subunit (Homo sapiens, UniProt P17655)",,,,> 10 µM
CCCCCC/C=C\CCCCCCCCCCOC(C)=O,"uncharacterized protein (Drosophila suzukii, UniProt A0AB39ZGK5)","binding, bis-ANS competition fluorescence",,"pH 7.4, added: bis-ANS",> 50 µM
CN1C(=O)[C@@H](Cc2ccc(O)cc2)NC(=O)CNC(=O)[C@H](Cc2ccc3ccccc3c2)NC(=O)[C@H](CCCNC(=N)N)NC(=O)[C@H]1CCCNC(=O)c1ccc(NC(=O)CN2CCN(CC(=O)O)CCN(CC(=O)O)CCN(CC(=O)O)CC2)cc1,"C-X-C chemokine receptor type 4 (CXCR4, Homo sapiens, UniProt P61073)",,,,0.22 ± 0.162 µM
COc1cc(O)c(CC=C(C)C)c(O)c1C(=O)/C=C/c1ccc(O)cc1,"Thyroxine 5-deiodinase (DIO3, Homo sapiens, UniProt P55073, A240R)",inhibitor,,A240R variant,0.27 µM and 0.23 µM and 0.21 µM
